# Published values from different studies.
# Numbered parts are unrelated; each lists some results of a single study.

# Set 1
# Target: Interferon regulatory factor 3, full length, phosphomimetic (IRF3, Homo sapiens, UniProt Q14653, residues 1-427, S386D/S396D/S398D/S402D/T404D/S405D)
# Method: protein-binding microarray
# Form: double-stranded DNA, one strand shown
# Sample: in vitro
# Concentration: 2540 nM top
# Notes: 60-bp whole probe
# Added: salmon DNA 0.4 mg/ml
# Relative to: random background probes
# Reading: higher = stronger binding
# Shared flanks, not repeated: GCCTAGCAC … GTCTTGATTCGCTTGACGCTGCTG
# Residues (chain): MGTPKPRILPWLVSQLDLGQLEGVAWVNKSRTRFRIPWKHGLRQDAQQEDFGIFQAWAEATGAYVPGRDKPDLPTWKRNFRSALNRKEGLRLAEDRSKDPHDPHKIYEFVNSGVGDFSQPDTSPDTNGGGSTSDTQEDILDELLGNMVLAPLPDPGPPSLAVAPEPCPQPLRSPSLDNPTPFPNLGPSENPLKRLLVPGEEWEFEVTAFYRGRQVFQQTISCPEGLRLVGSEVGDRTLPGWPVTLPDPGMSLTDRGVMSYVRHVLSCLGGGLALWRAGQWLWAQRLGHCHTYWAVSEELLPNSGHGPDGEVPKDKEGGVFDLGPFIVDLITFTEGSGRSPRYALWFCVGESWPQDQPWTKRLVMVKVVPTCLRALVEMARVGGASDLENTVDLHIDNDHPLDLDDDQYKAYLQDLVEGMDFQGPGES
Strand,fitted relative affinity [z-score]
TTAGGTATCGACACTGGGCTAGTGCTA,0.124
AACGATTTCGGGTATCGAGACGTGCTA,1.42
GATTCTTTCGATGCTAAACGAGTGCTA,1.59
TCAGGTTTCGGTTTCGGTTAGTGCTAG,11.8
ACTGTGTTTTGGATGTCAGAGTGCTAG,0.486
GTCGGTTTCGACTTTCGGGACGTGCTA,5.29
GACGGACTGGGGACTGCGGACGTGCTA,-1.1
CTGGGCAGGATGAGTTCCAGGTGCTAG,-0.305
TGGGTTTTCAGCTGTTTTTCTGTGCTA,0.0393
GACGGACGGGACACTGGGGACGTGCTA,-0.613
GACGGTCTCCTTCTCCGGACGTGCTAG,4.17
GTCGGTTTCCTACTGCTGACGTGCTAG,6.99
GGGCACATCTTAACATATGAGTGCTAG,0.458
TTAGATTTCAGTATCCATTAGTGCTAG,3.31
TGCCTTTTTTTTTTTTTCTGGTGCTAG,1
TTAGGTTTCCTTCTCCTCTAGTGCTAG,10.3
TCAGCATTCGAATTCAGACTGTGCTAG,0.657
TTAGGTTTCGACTTACGGTTAGTGCTA,3.32
TTAGCACTGGGGTATCGATTAGTGCTA,-0.574
TTAGAACTGATTATCGATTAGTGCTAG,0.188
GACGGCATCGACACTGGGGACGTGCTA,-1.06
CACTCTCTGCTTGTGTCTGGGTGCTAG,1.34

# Set 2
# Target: Ras GTPase-activating protein-binding protein 1, full length (G3BP1, Homo sapiens, UniProt Q13283)
# Sequence of UniProt Q13283 (whole entry, looked up): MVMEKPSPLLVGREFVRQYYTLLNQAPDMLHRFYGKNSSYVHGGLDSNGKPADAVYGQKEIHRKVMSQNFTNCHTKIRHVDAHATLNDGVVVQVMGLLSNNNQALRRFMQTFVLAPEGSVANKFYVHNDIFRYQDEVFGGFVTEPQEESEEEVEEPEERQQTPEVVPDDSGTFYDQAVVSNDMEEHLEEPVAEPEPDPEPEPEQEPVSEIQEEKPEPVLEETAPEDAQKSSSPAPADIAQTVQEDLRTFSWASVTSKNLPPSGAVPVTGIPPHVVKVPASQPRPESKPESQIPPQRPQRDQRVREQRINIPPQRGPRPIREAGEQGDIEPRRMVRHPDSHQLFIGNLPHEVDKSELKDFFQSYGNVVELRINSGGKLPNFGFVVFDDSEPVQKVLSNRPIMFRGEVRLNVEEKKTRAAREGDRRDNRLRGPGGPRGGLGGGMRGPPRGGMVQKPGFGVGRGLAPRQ
# Method: RNA Bind-n-Seq
# Form: RNA
# Sample: in vitro
# Concentration: 200 nM
# Notes: whole 134-nt RNA, ends assumed
# Added: 150 mM KCl
# Relative to: input library
# Reading: higher = stronger binding
# Shared flanks, not repeated: GGGAGUUCUACAGUCCGACGAUC … UGGAAUUCUCGGGUGUCAAGG
Strand,log2 enrichment
UGCCUCUGCGGCUAGCUGAUUUUGGGGUACUUCAUAGGAACGAGCUGUCUGGAGCACUCACAGGACUCACCCGGGUACGAAGAUUCCAAC,-1.25
AAGUCCUGUGCUACACAUCGUAUGUACCGAAUCGGGAAAGGGAGGGUUUUUUUGGGAAAGUAUUAUGUUACGCCGUUCGGAUCUGCACUU,0.235
GCAGGAAGUAAAAACAAAUGGAAAUGCUUCGGAUAGUGGCAGGGGUGGGGGUUGCUAAGGAAAGGGUGGGAUGGGAGUGGGUAAGGAGUU,0.713
CAAGUCCUGUGCUACACAUCGUAUGUACCGAAUCGGGCCCGGGGCCCGGCCCGGGGAAAGUAUUAUGUUACGCCGUUCGGAUCUGCACUU,-1.04
UCCUGUGCUACACAUCGUAUGUACCGAAUCGGGUUUUUUUGGGUUUUUGGGUUUUUGGGAAAGUAUUAUGUUACGCCGUUCGGAUCUGCA,-0.351
UGGCCCUGUUGGCAUGCGGGGAGGAAGAGGUGGCCUCAUGGAUCGUGGUGGUCCCGGUGGAAUGUUCAGAGGUGGCCGUGGUGGAGACAG,0.144
CUCAAGUCCUGUGCUACACAUCGUAUGUACCGAAUCGGAGGUUUUUGGUUUGGAAAGUAUUAUGUUACGCCGUUCGGAUCUGCACUUCCA,-0.728
AGUCCUGUGCUACACAUCGUAUGUACCGAAUCGGUUUGGUUUUUUUGGAAAAAAAGGAAAGUAUUAUGUUACGCCGUUCGGAUCUGCACU,-1.36
CACAGACAACACGCACCCACACAGACACAGAGGUAAGGGGUUGGGAUGGGGACAGGGUGCACAGCAGGGCGGGGUAGGACCCCAGCCCCU,1.84
UCCUGUGCUACACAUCGUAUGUACCGAAUCGGGGAAAAAAGGAAAAAAGGGGAAAAAAGGAAAGUAUUAUGUUACGCCGUUCGGAUCUGC,-0.349
UCCUCAAGUCCUGUGCUACACAUCGUAUGUACCGAAUCGGUGGUGGUGGGGAAAGUAUUAUGUUACGCCGUUCGGAUCUGCACUUCCAGC,-0.227
CUGUGCUACACAUCGUAUGUACCGAAUCAAAUUUUUUUAAACCCCCCCAAAUUUUUUUAAAAAAGUAUUAUGUUACGCCGUUCGGAUCUG,-0.12
CUCAAGUCCUGUGCUACACAUCGUAUGUACCGAAUCGGGGAAGGGAAGGGAAGGAAAGUAUUAUGUUACGCCGUUCGGAUCUGCACUUCC,-0.00868
GUCCUGUGCUACACAUCGUAUGUACCGAAUCGGGAAAAAAAGGGUUUGGGUUUUUGGGAAAGUAUUAUGUUACGCCGUUCGGAUCUGCAC,-0.483

# Set 3
# Target: RNA binding protein fox-1 homolog 2, RRM domain, GST-SBP tag (RBFOX2, Homo sapiens, UniProt O43251-10, residues 100-194)
# Method: RNA Bind-n-Seq
# Form: RNA
# Sample: in vitro
# Concentration: 365 nM
# Notes: natural RNA segment, single round, ends assumed
# Relative to: no-protein control
# Reading: higher = stronger binding
# Shared flanks, not repeated: GGGAGUUCUACAGUCCGACGAUC … UGGAAUUCUCGGGUGCCAA
# Residues (chain): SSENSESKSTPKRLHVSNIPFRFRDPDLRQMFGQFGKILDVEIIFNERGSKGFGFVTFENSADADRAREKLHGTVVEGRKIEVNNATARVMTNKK
Strand,RBNS enrichment (R)
GGCGAAGCUGUGUUGACUGGGAGAGCGUUGGAAAUUGAGACAUGGAGAGAUGACGGGAGUGCGUUUCUCUGGGUUUGAUCUCCAUCCUGUUUUCUCCCAGACACACCACA,0.413
CCUUAUCCUAUAGAGGCAUUUGUAAUAUGGAGAAAAUAAUUUUUCAUUUUUGCUCAUUUAAUUCUAUAAAUUCUCUUUAUAAAUGAAUUUUGUGUUCUUUAGUUCUCCUU,0.729
CCACUGGGGCUUGGUGCCCUGUAGGGGUGGGAGGAUGGCUUAAUGCAGACCUUUACCUGUGAGCCCCUAGGCCAAGGCUGUAGCAUUAAAUGACUAUUUAUUCUUCUGCC,0.303
UGAAGGUUGUCUCUUCCGAGGGCCUUCUGAAGACAGGGCUCUUGAACAGACAAGUGGAAGGGCUGUACCAGGGAUAAAGGAAAGAAGUGCCUGUCCAGCAGGGAGCUUGA,0.672
ACAGUAUCUGGUUUUUAAAAUAUUUGCUAUGUAGUAAUGGGCAUUUUAAGAUAUAGUUAAGAUAUAAAAGAAUGGCAGAAUGCGAUUGAUUCCUUCCUGUCGAGUUAAAU,0.419
CAUGUGAGGUUGUGGUCACAGCAUGGGGGCCUUGAGAGCCUGGCCAGGUGGCCCUCCACGUGAGGUCAUGGUCACAGCAUGGAGGCCUUGAGAGCCUGGCCAGGUGGCCC,6.25
UGUAAACUAAAACAAAUUGUGCAUUCCUUCCGGGGCCAUCGUCUUUGUUUUCUUUUUUGUCUUGAAUGAAUUUUAAAAGGAAAUAUAUAAUAAAAAUGUUAACCAGAAGG,0.581
UGCUUUGACCUGCAGAGACUUGUAGACCUCUUCUCUUCUCUGUCCCCUUGGUUACCACCUACCCACCUUGCCUAUUUUAAGUGAAACUUACCACCAAUGAUGUGGGGAAG,0.563
CCGAGCAGUUAGAGAAAAGCCGCCUCACACUGUGUUUCACACUCGGGCAGUAAGUAUUGUAACGCCGGCCUCUUUUUGGGUCAUUUACUAGAUUAGGACUAUUACAUCCA,0.264
CACUGUUGUGGCUUUUGACUUGGGGUGGUCCAGUGCCAGGCUGGAAGUAAGCACAGCCCAUCUCCUGUUCACAUUCUCUAGACCGUCAUCACCUUUGCCCUGCUCUGGGG,1.22
CCUGGCGAGGGUUAUGAACCCAGUGUAAGAGACCACCCACCCAGAGCCUCAGCACUGUCUGACUUUGGGAACCAGGGAUCCCACAGAAAUGUUUUGGAGAGCGGGAGGUU,0.309
UGGUUAAUUAAAACUGUGAAUUUUUGUGUAACUAGUUUCAGAGUGUUAUUAAAUAUGAUAAAAUGCAGUAAGUCUUUUGGUCUCCUGUCUCAUUUUGAACAUGGUUCACG,0.379

# Set 4
# Target: Histone acetyltransferase KAT6A, both winged helices, GST fusion (KAT6A, Homo sapiens, UniProt Q92794, residues 1-181)
# Method: protein binding microarray
# Form: double-stranded DNA, one strand shown
# Sample: in vitro
# Concentration: not given
# Notes: 8-mer, flanks averaged, mean of 2 arrays, mostly near background
# Relative to: not given
# Reading: higher = stronger binding
# Target sequence (chain): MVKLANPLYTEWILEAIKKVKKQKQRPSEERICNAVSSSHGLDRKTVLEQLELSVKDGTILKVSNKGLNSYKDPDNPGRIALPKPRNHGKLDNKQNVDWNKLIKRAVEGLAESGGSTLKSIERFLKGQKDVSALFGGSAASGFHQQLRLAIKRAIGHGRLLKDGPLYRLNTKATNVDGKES
Strand,E-score
GTCGGGCA,0.0723
GCGGCAAA,0.3
AAACAAGA,-0.118
GCCTATCA,-0.106
AAACAAGG,-0.171
ACGGTACG,0.307
TACTGCTA,-0.168
CCAAATTA,-0.144
CCAACGCA,0.083
ATAAGAGA,-0.125
CATGTAAC,0.159
AAGTCAAC,-0.141
GACTCCGA,0.0116
CTATTTCA,-0.0351
GACCTTAA,-0.0529
TGTTGAAA,0.0174
CTTGGCGC,0.168
CCCGCCAC,0.128
AGCGCGCC,0.368
CATCCGGA,0.0582
AAATAGCA,-0.189
GCTATTTA,0.0444
ATGAGCAC,-0.121
ACGACAGT,-0.133
CTTCAACA,-0.0611

# Repeated from above (set 1):
Strand,fitted relative affinity [z-score]
TTAGAACTGATTATCGATTAGTGCTAG,0.188
TCAGCATTCGAATTCAGACTGTGCTAG,0.657
GTCGGTTTCCTACTGCTGACGTGCTAG,6.99
GACGGACTGGGGACTGCGGACGTGCTA,-1.1
GATTCTTTCGATGCTAAACGAGTGCTA,1.59
CACTCTCTGCTTGTGTCTGGGTGCTAG,1.34
TCAGGTTTCGGTTTCGGTTAGTGCTAG,11.8
TTAGGTATCGACACTGGGCTAGTGCTA,0.124
